# Published values pooled from the literature.
# Protocols differ between the studies behind these lines. Values joined by “and” are separate records of one study, mostly repeats; a detail may differ. ± gives the spread as reported.
# Sequence of UniProt P20813 (whole entry, looked up): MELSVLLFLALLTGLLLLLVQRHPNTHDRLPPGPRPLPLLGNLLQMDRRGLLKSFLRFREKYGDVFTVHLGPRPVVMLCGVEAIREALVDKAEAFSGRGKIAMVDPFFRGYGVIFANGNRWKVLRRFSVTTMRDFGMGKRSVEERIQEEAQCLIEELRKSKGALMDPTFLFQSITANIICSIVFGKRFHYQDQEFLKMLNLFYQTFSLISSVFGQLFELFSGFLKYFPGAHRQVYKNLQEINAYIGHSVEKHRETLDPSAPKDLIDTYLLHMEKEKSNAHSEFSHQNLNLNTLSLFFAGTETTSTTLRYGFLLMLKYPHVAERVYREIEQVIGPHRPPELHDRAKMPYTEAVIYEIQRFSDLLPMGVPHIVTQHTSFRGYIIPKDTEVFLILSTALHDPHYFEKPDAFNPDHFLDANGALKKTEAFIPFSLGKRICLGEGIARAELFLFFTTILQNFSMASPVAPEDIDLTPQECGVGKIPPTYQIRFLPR
# Sequence of UniProt Q9NYY3 (whole entry, looked up): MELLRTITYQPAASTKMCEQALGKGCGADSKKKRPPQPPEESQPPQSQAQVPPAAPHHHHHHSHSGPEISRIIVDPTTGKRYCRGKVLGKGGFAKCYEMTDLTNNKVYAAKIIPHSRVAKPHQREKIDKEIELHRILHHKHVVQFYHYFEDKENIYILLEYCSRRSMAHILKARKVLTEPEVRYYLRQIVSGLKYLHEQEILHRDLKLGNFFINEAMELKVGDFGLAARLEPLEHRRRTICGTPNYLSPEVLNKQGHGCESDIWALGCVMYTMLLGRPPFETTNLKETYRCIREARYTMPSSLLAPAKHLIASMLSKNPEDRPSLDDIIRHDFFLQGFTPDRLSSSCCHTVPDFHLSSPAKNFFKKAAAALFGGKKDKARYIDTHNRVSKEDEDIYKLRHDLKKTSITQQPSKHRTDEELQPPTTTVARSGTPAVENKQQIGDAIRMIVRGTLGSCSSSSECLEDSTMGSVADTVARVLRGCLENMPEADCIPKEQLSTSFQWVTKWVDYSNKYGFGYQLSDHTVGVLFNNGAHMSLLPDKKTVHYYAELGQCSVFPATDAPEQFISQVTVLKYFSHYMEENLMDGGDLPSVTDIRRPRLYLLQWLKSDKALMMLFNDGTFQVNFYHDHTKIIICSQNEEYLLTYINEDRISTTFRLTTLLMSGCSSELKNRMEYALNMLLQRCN
SMILES,target or system,test,test system,setting,how to read,measurement,result
Fc1ccc(Nc2nc(NC3CCCCC3)c3cc(Br)ccc3n2)cc1F,β2AR/β1AR TM2 chimera,"β-arrestin2 recruitment, antagonist, BRET",,with: isoprenaline 1 µM,,pIC50,6.2
CC(C)=CCC/C(C)=C/CC/C(C)=C/Cc1c(O)cc(CO)c(C=O)c1O,StaI (Stachybotrys chartarum),substrate,,"30 min, pH 7.0, 45 °C",,kcat,0.001 s⁻¹
Cc1ncsc1-c1ccc(C(C)NC(=O)C2CC(O)CN2C(=O)C(NC(=O)CCCCCCCCCCN2CCCC(Nc3ncc(Cl)c(Nc4ccccc4S(=O)(=O)C(C)C)n3)C2)C(C)(C)C)cc1 (centres unmarked),22Rv1,"RNA-seq, refers to: ZC3H12A mRNA",,concentration not given,reference: DMSO,log2 fold change,-1.24
CC(C)OCCOCc1ccc(OCC(O)CN(N=O)C(C)C)cc1 (centres unmarked),Salmonella typhimurium,Ames test,TA98,"1580 µg/plate, without metabolic activation",reference: solvent control,revertant fold increase,0.8 fold
CC(C)c1ccc(N(C)c2ccc3c(c2)OCC[C@H]3CNc2cnccc2C(=O)O)cc1,OCUM1,"cell growth or viability, ATP luminescence",,7 days,,IC50,7.79 nM
C=CC(=O)Nc1cccc(Cn2ncc3cnc(Nc4cnn(CCOC)c4)nc32)c1,STK16 human,"binding, KINOMEscan",,100 nM,lower = stronger binding,percent of control,19%
C=CC(=O)N1[C@H](c2ccc3c(c2)OCO3)c2[nH]c3ccccc3c2C[C@@H]1C(=O)N1CCN(C)CC1,human cyclin E1 N112C-3xFLAG:CDK2,"co-IP with TMT proteomics, refers to: HNRNPU",,"concentration not given, Q00839",reference: wild type DMSO,relative co-enrichment,132%
CN(C)CCCCCN(C)Cc1cc2ccccc2o1,Trypanosoma cruzi,"reporter mRNA translation, inhibitor, refers to: Renilla luciferase mRNA",cell-free extract,"concentration not given, test 1",reference: positive over negative control,translation activity,86.7%
CC1CCC2C(C)(C)C(O)CCC2(C)C12Cc1c(O)cc(CO)c(C=O)c1O2 (centres unmarked),StaI′ (Stachybotrys chartarum),substrate,,"30 min, pH 7.5, 40 °C",,kcat,0.025 s⁻¹
CC(C)(O)c1ccn2c(-c3ccc(F)c(-c4ccc(F)cc4C#N)c3)cnc2c1F,GABAA receptor α1 P260L human,cell surface biotinylation,HEK-293T,"5 µM, 24 h, with: hispidulin 10 µM",reference: DMSO,surface expression,2 ± 0.29 fold
CNC(=O)C1CCCN(C(=O)C2CC3CCC2N3C(=O)[C@@H]2C[C@@H](O)CN2C(=O)NCc2cccc(Cl)c2F)C1 (mixture of isomers),"Cytochrome P450 2B6 (CYP2B6, Homo sapiens, UniProt P20813)",preincubation with NADPH,human,50 µM,reference: negative control,remaining activity,108% and 96.6% and 101%
CCCC[C@H](NC(C)=O)C(=O)N[C@@H](CO)C(=O)N[C@H](C(=O)N1CCC[C@H]1C(=O)N[C@]1(C)CCCCCCC=CCCC[C@@](C)(C(=O)N[C@@H](Cc2ccccc2)C(=O)N[C@@H](CCCCN)C(=O)N[C@@H](CCCNC(=N)N)C(=O)N[C@@H](CC(C)C)C(=O)N[C@@H](CCC(N)=O)C(N)=O)NC(=O)[C@H](CCCNC(=N)N)NC(=O)[C@H](CCCC)NC(=O)[C@H](CC(C)C)NC(=O)[C@H](CCCNC(=N)N)NC(=O)[C@H](CCCNC(=N)N)NC(=O)[C@H](CCCNC(=N)N)NC1=O)[C@@H](C)O,proteinase K,LC-MS,,"25 µM, 430.6 min, pH 7.4",,remaining peptide,42.9%
Fc1ccc(Nc2nc(NC3CCCCC3)c3ccccc3n2)cc1F,β2AR/β1AR TM2 chimera,"β-arrestin2 recruitment, antagonist, BRET",,,reference: isoprenaline maximal response,maximal inhibition,0.8%
CN1CCCNC(=O)CCC(=O)NCCCN(C)CCCNc2cccc3c2C(=O)c2cccc(c2C3=O)NCCC1,telomeric G-quadruplex DNA,"DNA binding, UV-Vis titration",,,reference: Ka telomeric G1 over double-stranded DNA,selectivity ratio,1800
COC1CN([C@H]2CC[C@H]([C@@]3(C)Oc4c(Cl)cc(C(=O)NCc5c(SC)cc(C)[nH]c5=O)c(C)c4O3)CC2)C1,,"RNA-seq, refers to: GIPC2 mouse homolog","mouse, HT-1376 xenograft, whole blood",dose not given,reference: vehicle,log2 fold change,1.78
CC(C)C[C@H](NC(=O)[C@H](Cc1ccc(O)cc1)NC(=O)[C@@H](CCCNC(=N)N)NC(=O)[C@@H](CO)NC(=O)[C@H](Cc1ccccc1)NC(=O)[C@H](CC1CCCCC1)NC(=O)[C@H](CC(=O)O)NC(=O)CN1CCN(CC(=O)O)CCN(CC(=O)O)CCN(CC(=O)O)CC1)C(=O)N[C@@H](Cc1c[nH]c2ccccc12)C(=O)N[C@@H](CO)C(=O)O [copper-64 labelled],,,"human, bone","concentration not given, 3 h",,activity concentration,328 Bq/mL and 406 Bq/mL and 261 Bq/mL and 455 Bq/mL and 626 Bq/mL and 516 Bq/mL
CC[C@H]1OC(=O)[C@H](C)[C@@H](OC(=O)Cc2ccc(C(F)(F)F)cc2)[C@H](C)[C@@H](O[C@@H]2O[C@H](C)C[C@H](N(C)C)[C@H]2O)[C@](C)(OC)C[C@@H](C)C(=O)[C@H](C)[C@@H](O)[C@]1(C)O,Escherichia coli ribosome,"in vitro transcription-translation, inhibitor",,,,IC50,> 1000 nM and 1600 nM
Cc1nn(-c2cccc(N)c2)c(=O)c2cnc(Nc3ccc(N4CCNCC4)cc3)nc12,"PLK2 (Homo sapiens, UniProt Q9NYY3)","enzyme activity, inhibitor",,,,IC50,> 10000 nM
c1ccc(-c2n[nH]cc2-c2ccnc3ccccc23)nc1,RCK2 (Candida albicans),"kinase binding, MIB/MS competition",Candida albicans lysate,1 µM,reference: DMSO,log2 fold change,0.1
CC[C@H]1OC(=O)[C@H](C)[C@@H](OC(=O)Cc2cccc([N+](=O)[O-])c2)[C@H](C)[C@@H](O[C@@H]2O[C@H](C)C[C@H](N(C)C)[C@H]2O)[C@](C)(OC)C[C@@H](C)C(=O)[C@H](C)[C@@H](O)[C@]1(C)O,Escherichia coli ribosome,"in vitro transcription-translation, inhibitor",,,,IC50,180 nM
C1=NCCCN=Cc2ccc([nH]2)-c2nc3ccccc3nc2-c2ccc1[nH]2,human ACTN3 291-bp linear dsDNA,high-resolution melt,,135 µM,,melting temperature,82.8 °C
CNS(=O)(=O)Nc1nccc(Cc2c(C)c3ccc(Oc4ncccc4F)cc3oc2=O)c1F,SK-ES1,cell viability,,7 days,,IC50,> 1000 nM
C1=[N+]2CCCC[N+]3=Cc4ccc5[n]4[Au-]23[n]2c1ccc2-c1nc2ccccc2nc1-5.F[P-](F)(F)(F)(F)F,human ACTN3 291-bp linear dsDNA,high-resolution melt,,52 µM,,melting temperature,87.2 °C
CCN1CCSC1=CC=CC1=[N+](CC)CCS1,Trypanosoma cruzi,"reporter mRNA translation, inhibitor, refers to: Renilla luciferase mRNA",cell-free extract,"concentration not given, test 1",reference: positive over negative control,translation activity,95.9%
C1=[N+]2CCC[N+]3=Cc4ccc5[n]4[Au-]23[n]2c1ccc2-c1nc2ccccc2nc1-5.F[P-](F)(F)(F)(F)F,human ACTN3 291-bp linear dsDNA,high-resolution melt,,81.6 nM,,melting temperature,83.1 °C
NCCOc1cc(NC(=O)c2cc(OCc3cn(Cc4ccc(C(=O)O)cc4)nn3)cc(C(=O)Nc3cc(OCCN)c4ccccc4n3)n2)nc2ccccc12,c-kit1 G-quadruplex DNA,FRET melting,,"1 µM, pH 7.4, with: 60 mM potassium",,ΔTm,15.5 ± 0.5 K
CN1CCCNC(=O)c2cccc(c2)C(=O)NCCCN(C)CCCNc2cccc3c2C(=O)c2cccc(c2C3=O)NCCC1,telomeric G-quadruplex DNA,"DNA thermal stabilisation, CD melting",,"concentration not given, pH 7.4, with: 100 mM KCl",,ΔTm,8.8 ± 0.6 °C
Cn1ccc2cc(-n3c(=O)[nH]c4sc5c(c4c3=O)CCCC5)ccc21,imidazoline I2 receptor rat,"binding, radioligand binding",,"10 µM, central",,inhibition,-21%
CC[C@H]1OC(=O)[C@H](C)[C@@H](OC(=O)Cc2c(F)cccc2F)[C@H](C)[C@@H](O[C@@H]2O[C@H](C)C[C@H](N(C)C)[C@H]2O)[C@](C)(OC)C[C@@H](C)C(=O)[C@H](C)[C@@H](O)[C@]1(C)O,Escherichia coli ribosome,"in vitro transcription-translation, inhibitor",,,,IC50,180 nM
O=S(=O)(NCc1ccncc1)c1ccc(C2CCCCC2)cc1,NONO (human),"probe binding, biotin probe pulldown, refers to: NONO",,500 µM,reference: DMSO,inhibition,~31%
CC1(C)CC(c2cn(C3CCCN(C(=O)c4ccc5c(c4)CCOC5(C)C)CC3)nn2)CO1 (centres unmarked),FSP1 L323A,"resorufin formation, inhibitor",,"with: NADH, resazurin",,IC50,no inhibition
CC1(C)C[N+]2=Cc3ccc4[n]3[Au-]23[n]2c(ccc2-c2nc5ccccc5nc2-4)C=[N+]3C1.F[P-](F)(F)(F)(F)F,human ACTN3 291-bp linear dsDNA,high-resolution melt,,50.5 µM,,melting temperature,86.8 °C
Cc1[nH]nc2c1N=C(c1ccccc1Cl)c1cnc(N3CCOCC3)cc1N2,"rolipram binding site, rat",radioligand binding,,10 µM,,inhibition,75%
CC[C@H]1OC(=O)[C@H](C)[C@@H](OC(=O)CC2CCCCC2)[C@H](C)[C@@H](O[C@@H]2O[C@H](C)C[C@H](N(C)C)[C@H]2O)[C@](C)(OC)C[C@@H](C)C(=O)[C@H](C)[C@@H](O)[C@]1(C)O,Escherichia coli ribosome,"in vitro transcription-translation, inhibitor",,,,IC50,800 nM
Nc1ncc(-c2cc(-c3cnn(CC(F)(F)F)c3)ncc2F)nc1C(=O)NC1CNCC(F)C1 (centres unmarked),RIOK2,KINOMEscan,,1 µM,reference: DMSO control,remaining binding,100%

# Some of these lines once more:
SMILES,target or system,test,test system,setting,how to read,measurement,result
CCN1CCSC1=CC=CC1=[N+](CC)CCS1,Trypanosoma cruzi,"reporter mRNA translation, inhibitor, refers to: Renilla luciferase mRNA",cell-free extract,"concentration not given, test 1",reference: positive over negative control,translation activity,95.9%
NCCOc1cc(NC(=O)c2cc(OCc3cn(Cc4ccc(C(=O)O)cc4)nn3)cc(C(=O)Nc3cc(OCCN)c4ccccc4n3)n2)nc2ccccc12,c-kit1 G-quadruplex DNA,FRET melting,,"1 µM, pH 7.4, with: 60 mM potassium",,ΔTm,15.5 ± 0.5 K
Fc1ccc(Nc2nc(NC3CCCCC3)c3cc(Br)ccc3n2)cc1F,β2AR/β1AR TM2 chimera,"β-arrestin2 recruitment, antagonist, BRET",,with: isoprenaline 1 µM,,pIC50,6.2
CC[C@H]1OC(=O)[C@H](C)[C@@H](OC(=O)Cc2c(F)cccc2F)[C@H](C)[C@@H](O[C@@H]2O[C@H](C)C[C@H](N(C)C)[C@H]2O)[C@](C)(OC)C[C@@H](C)C(=O)[C@H](C)[C@@H](O)[C@]1(C)O,Escherichia coli ribosome,"in vitro transcription-translation, inhibitor",,,,IC50,180 nM
C1=[N+]2CCC[N+]3=Cc4ccc5[n]4[Au-]23[n]2c1ccc2-c1nc2ccccc2nc1-5.F[P-](F)(F)(F)(F)F,human ACTN3 291-bp linear dsDNA,high-resolution melt,,81.6 nM,,melting temperature,83.1 °C
CC(C)C[C@H](NC(=O)[C@H](Cc1ccc(O)cc1)NC(=O)[C@@H](CCCNC(=N)N)NC(=O)[C@@H](CO)NC(=O)[C@H](Cc1ccccc1)NC(=O)[C@H](CC1CCCCC1)NC(=O)[C@H](CC(=O)O)NC(=O)CN1CCN(CC(=O)O)CCN(CC(=O)O)CCN(CC(=O)O)CC1)C(=O)N[C@@H](Cc1c[nH]c2ccccc12)C(=O)N[C@@H](CO)C(=O)O [copper-64 labelled],,,"human, bone","concentration not given, 3 h",,activity concentration,328 Bq/mL and 406 Bq/mL and 261 Bq/mL and 455 Bq/mL and 626 Bq/mL and 516 Bq/mL
